# Measurements collected from several papers.
# Compare with care: the assays were run in different laboratories.
# T1: PDHA1/PDHB 30-390 E229A on β (Homo sapiens); chain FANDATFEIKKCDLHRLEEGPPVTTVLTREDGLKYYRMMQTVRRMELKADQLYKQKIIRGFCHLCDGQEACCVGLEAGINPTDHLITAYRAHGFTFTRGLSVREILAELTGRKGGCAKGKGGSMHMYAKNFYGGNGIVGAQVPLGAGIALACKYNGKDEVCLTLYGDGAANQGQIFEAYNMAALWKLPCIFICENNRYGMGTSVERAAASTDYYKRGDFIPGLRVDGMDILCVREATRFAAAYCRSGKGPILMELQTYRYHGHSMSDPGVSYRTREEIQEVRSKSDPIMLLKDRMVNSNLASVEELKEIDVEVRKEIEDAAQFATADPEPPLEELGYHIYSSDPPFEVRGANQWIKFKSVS; chain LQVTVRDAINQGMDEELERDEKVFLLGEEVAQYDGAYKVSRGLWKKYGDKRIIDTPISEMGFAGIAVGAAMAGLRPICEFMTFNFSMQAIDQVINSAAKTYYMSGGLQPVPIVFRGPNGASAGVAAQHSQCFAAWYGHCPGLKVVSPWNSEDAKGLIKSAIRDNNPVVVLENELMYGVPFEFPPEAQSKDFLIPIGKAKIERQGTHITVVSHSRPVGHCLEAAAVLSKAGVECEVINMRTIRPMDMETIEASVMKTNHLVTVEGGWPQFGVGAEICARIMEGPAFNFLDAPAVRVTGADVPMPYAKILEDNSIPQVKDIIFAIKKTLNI
# T2: HSP90AA1 723-732 C-terminal peptide M to I, N-terminal 5-carboxyfluorescein (Homo sapiens); DDTSRIEEVD
# B1: UGT1A9 (Homo sapiens, UniProt O60656); chain GKLLVVPMDGSHWFTMRSVVEKLILRGHEVVVVMPEVSWQLGRSLNCTVKTYSTSYTLEDLDREFKAFAHAQWKAQVRSIYSLLMGSYNDIFDLFFSNCRSLFKDKKLVEYLKESSFDAVFLDPFDNCGLIVAKYFSLPSVVFARGILCHYLEEGAQCPAPLSYVPRILLGFSDAMTFKERVRNHIMHLEEHLLCHRFFKNALEIASEILQTPVTEYDLYSHTSIWLLRTDFVLDYPKPVMPNMIFIGGINCHQGKPLPMEFEAYINASGEHGIVVFSLGSMVSEIPEKKAMAIADALGKIPQTVLWRYTGTRPSNLANNTILVKWLPQNDLLGHPMTRAFITHAGSHGVYESICNGVPMVMMPLFGDQMDNAKRMETKGAGVTLNVLEMTSEDLENALKAVINDKSYKENIMRLSSLHKDRPVEPLDLAVFWVEFVMRHKGAPHLRPAAHDLTWYQYHSLDVIGFLLAVVLTVAFITFKCCAYGYRKCLGKKGRVKKAHKSKTH
# B2: FGF6 (Homo sapiens, UniProt P10767); chain SPAGTRANNTLLDSRGWGTLLSRSRAGLAGEIAGVNWESGYLVGIKRQRRLYCNVGIGFHLQVLPDGRISGTHEENPYSLLEISTVERGVVSLFGVRSALFVAMNSKGRLYATPSFQEECKFRETLLPNNYNAYESDLYQGTYIALSKYGRVKRGSKVSPIMTVTHFLPRI
# B3: DLAT 214-416 (Homo sapiens, UniProt P10515); sequence looked up; chain SYPPHMQVLLPALSPTMTMGTVQRWEKKVGEKLSEGDLLAEIETDKATIGFEVQEEGYLAKILVPEGTRDVPLGTPLCIIVEKEADISAFADYRPTEVTDLKPQVPPPTPPPVAAVPPTPQPLAPTPSAPCPATPAGPKGRVFVSPLAKKLAVEKGIDLTQVKGTGPDGRITKKDIDSFVPSKVAPAPAAVVPPTGPGMAPVP
# B4: TUB1/TUB2 heterodimer D118A (Saccharomyces cerevisiae); chain 1 MREVISINVGQAGCQIGNACWELYSLEHGIKPDGHLEDGLSKPKGGEEGFSTFFHETGYGKFVPRAIYVDLEPNVIDEVRNGPYKDLFHPEQLISGKEDAANNYARGHYTVGREILGAVLDRIRKLADQCDGLQGFLFTHSLGGGTGSGLGSLLLEELSAEYGKKSKLEFAVYPAPQVSTSVVEPYNTVLTTHTTLEHADCTFMVDNEAIYDMCKRNLDIPRPSFANLNNLIAQVVSSVTASLRFDGSLNVDLNEFQTNLVPYPRIHFPLVSYSPVLSKSKAFHESNSVSEITNACFEPGNQMVKCDPRDGKYMATCLLYRGDVVTRDVQRAVEQVKNKKTVQLVDWCPTGFKIGICYEPPTATPNSQLATVDRAVCMLSNTTSIAEAWKRIDRKFDLMYAKRAFVHWYVGEGMEEGEFTEAREDLAALERDYIEVGADSYAEEEEF; chain 2 MREIIHISTGQCGNQIGAAFWETICGEHGLDFNGTYHGHDDIQKERLNVYFNEASSGKWVPRSINVDLEPGTIDAVRNSAIGNLFRPDNYIFGQSSAGNVWAKGHYTEGAELVDSVMDVIRREAEGCDSLQGFQITHSLGGGTGSGMGTLLISKIREEFPDRMMATFSVLPSPKTSDTVVEPYNATLSVHQLVEHSDETFCIDNEALYDICQRTLKLNQPSYGDLNNLVSSVMSGVTTSLRYPGQLNSDLRKLAVNLVPFPRLHFFMVGYAPLTAIGSQSFRSLTVPELTQQMFDAKNMMAAADPRNGRYLTVAAFFRGKVSVKEVEDEMHKVQSKNSDYFVEWIPNNVQTAVCSVAPQGLDMAATFIANSTSIQELFKRVGDQFSAMFKRKAFLHWYTSEGMDELEFSEAESNMNDLVSEYQQYQEATVEDDEEVDENGDFGAPQNQDEPITENFE
# Chain of UniProt P22091 (whole entry, looked up): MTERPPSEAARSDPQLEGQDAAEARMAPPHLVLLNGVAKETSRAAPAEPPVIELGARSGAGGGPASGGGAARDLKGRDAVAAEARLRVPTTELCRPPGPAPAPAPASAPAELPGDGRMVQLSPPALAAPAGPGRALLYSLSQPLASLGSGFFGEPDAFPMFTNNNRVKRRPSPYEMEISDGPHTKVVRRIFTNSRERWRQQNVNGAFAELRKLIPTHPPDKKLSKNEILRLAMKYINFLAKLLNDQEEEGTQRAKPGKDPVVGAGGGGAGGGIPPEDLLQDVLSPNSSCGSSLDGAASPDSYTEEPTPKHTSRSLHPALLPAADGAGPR
# Chain of UniProt Q61851 (whole entry, looked up): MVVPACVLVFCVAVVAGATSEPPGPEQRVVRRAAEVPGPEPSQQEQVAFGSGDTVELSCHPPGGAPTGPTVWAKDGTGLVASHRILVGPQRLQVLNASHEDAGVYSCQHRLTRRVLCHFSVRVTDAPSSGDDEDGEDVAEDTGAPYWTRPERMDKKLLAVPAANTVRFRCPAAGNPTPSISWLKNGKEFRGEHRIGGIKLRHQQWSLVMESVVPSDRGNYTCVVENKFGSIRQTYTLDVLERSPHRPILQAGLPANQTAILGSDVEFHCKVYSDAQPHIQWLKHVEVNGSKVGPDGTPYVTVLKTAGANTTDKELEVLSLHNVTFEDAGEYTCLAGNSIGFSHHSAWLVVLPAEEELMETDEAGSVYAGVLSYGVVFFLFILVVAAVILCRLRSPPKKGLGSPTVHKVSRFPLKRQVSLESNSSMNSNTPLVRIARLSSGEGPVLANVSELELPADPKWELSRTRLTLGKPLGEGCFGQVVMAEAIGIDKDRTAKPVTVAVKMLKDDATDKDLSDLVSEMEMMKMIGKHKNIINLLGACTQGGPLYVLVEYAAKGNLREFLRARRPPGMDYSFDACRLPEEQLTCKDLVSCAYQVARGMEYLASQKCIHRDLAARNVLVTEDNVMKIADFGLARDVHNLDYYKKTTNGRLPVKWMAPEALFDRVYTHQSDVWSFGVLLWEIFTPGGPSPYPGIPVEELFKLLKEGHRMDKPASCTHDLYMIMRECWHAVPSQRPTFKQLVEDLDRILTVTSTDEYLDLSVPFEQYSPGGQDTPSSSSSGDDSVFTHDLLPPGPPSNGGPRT
# Chain of UniProt Q99615 (whole entry, unmodified, looked up): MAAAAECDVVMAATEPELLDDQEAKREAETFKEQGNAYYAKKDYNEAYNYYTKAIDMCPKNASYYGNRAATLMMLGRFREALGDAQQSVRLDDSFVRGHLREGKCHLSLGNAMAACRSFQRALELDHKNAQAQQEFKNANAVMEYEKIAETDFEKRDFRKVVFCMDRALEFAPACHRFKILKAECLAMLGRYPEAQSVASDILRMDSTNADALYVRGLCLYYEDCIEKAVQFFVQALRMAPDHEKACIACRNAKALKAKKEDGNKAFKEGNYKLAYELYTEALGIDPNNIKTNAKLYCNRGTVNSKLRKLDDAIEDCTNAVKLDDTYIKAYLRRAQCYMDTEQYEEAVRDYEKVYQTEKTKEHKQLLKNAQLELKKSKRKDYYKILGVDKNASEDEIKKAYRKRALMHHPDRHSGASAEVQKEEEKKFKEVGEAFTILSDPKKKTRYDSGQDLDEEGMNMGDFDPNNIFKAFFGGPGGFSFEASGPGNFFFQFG
# Chain of UniProt O54972 (whole entry, looked up): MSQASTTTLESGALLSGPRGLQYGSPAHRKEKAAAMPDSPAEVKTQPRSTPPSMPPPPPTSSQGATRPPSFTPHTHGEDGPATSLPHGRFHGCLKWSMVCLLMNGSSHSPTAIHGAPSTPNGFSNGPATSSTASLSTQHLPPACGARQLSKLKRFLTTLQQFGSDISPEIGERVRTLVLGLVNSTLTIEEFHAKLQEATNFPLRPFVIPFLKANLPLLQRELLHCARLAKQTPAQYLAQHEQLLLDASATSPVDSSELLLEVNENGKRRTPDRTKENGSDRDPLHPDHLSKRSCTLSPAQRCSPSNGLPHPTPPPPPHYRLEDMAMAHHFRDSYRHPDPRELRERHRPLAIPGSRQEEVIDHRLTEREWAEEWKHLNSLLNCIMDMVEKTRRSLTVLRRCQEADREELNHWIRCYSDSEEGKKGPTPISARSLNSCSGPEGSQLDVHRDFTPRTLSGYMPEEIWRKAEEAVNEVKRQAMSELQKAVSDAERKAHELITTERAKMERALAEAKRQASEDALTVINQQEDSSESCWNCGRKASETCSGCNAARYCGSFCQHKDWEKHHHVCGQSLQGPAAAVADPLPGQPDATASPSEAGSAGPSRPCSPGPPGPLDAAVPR
# Chain of UniProt P21784 (whole entry, looked up): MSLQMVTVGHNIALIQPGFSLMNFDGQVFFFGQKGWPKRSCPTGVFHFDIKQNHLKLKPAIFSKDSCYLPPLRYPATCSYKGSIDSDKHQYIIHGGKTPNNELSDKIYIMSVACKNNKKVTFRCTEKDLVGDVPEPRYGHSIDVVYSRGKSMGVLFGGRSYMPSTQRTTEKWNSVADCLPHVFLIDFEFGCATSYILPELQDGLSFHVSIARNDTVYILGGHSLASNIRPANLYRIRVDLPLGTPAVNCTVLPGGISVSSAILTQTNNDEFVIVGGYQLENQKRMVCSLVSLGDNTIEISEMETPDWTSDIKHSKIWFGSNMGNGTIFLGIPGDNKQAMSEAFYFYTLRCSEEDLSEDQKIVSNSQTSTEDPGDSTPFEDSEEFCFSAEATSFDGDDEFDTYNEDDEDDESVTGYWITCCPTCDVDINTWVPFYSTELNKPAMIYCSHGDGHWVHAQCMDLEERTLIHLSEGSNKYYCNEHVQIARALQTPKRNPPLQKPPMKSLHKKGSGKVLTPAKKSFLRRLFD
# Chain of UniProt P53086 (whole entry, looked up): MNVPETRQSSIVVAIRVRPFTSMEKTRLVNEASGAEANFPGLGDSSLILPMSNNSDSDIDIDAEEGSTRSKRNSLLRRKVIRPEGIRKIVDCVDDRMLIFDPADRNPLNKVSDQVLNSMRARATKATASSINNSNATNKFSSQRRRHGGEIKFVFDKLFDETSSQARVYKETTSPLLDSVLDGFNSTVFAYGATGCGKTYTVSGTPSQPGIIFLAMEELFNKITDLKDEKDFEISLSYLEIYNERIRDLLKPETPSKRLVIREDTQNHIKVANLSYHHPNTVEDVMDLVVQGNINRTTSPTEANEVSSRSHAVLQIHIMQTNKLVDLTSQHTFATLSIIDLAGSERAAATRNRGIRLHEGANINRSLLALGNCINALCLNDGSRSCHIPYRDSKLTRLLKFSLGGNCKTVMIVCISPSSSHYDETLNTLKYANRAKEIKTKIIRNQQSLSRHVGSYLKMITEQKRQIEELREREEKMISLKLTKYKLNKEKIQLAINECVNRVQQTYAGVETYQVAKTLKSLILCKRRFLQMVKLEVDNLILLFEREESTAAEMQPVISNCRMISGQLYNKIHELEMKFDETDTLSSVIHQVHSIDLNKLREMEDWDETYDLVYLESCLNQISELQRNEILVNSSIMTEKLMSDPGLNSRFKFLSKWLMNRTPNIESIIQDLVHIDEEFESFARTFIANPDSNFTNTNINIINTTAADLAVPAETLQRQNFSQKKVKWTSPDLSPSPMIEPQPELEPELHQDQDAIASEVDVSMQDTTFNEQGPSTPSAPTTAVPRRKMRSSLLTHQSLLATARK
# Chain of UniProt P0A6A8 (whole entry, looked up): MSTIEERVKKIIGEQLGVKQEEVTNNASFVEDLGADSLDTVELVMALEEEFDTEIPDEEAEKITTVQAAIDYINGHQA
# Chain of UniProt P31266 (whole entry, unmodified, looked up): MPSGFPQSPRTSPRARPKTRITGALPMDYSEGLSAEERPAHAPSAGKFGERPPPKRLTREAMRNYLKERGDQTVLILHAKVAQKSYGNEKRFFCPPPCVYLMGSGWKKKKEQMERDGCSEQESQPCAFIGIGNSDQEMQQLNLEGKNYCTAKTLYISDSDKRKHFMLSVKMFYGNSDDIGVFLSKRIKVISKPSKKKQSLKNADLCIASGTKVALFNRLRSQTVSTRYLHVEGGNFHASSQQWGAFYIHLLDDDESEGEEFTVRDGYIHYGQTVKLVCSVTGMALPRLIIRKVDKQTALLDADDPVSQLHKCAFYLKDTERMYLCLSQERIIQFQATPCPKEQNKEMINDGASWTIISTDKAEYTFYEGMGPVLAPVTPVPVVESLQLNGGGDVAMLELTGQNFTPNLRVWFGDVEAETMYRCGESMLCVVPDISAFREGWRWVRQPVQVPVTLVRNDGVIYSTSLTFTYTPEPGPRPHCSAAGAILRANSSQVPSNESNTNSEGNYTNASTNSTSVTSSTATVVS
# Chain of UniProt P70618 (whole entry, unmodified, looked up): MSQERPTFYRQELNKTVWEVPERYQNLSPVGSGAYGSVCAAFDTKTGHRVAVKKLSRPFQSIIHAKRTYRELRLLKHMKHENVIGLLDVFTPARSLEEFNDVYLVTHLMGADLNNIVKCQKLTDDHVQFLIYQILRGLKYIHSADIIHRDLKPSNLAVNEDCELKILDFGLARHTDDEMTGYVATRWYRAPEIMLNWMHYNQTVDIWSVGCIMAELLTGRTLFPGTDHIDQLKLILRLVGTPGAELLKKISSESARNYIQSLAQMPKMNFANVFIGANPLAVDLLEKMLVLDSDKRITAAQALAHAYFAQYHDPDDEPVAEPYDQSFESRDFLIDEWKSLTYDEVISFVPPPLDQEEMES
Molecule,tested on,assay,system,setting,how to read,endpoint,result
B1 (UGT1A9),O=c1ccoc2cc(O)ccc12,steady-state kinetics,,"pH 7.4, 37 °C",,Vmax/Km,8 µL/min/mg
"Cbfa2t3 (Mus musculus, UniProt O54972)","Tal1 (Mus musculus, UniProt P22091)",luciferase reporter,NIH 3T3,added: Mtgr1,higher = stronger repression,repression of reporter,17.6 fold
fabF K65A (Escherichia coli),"acpP C12-acylated 1-78, C12 acyl on 4'-phosphopantetheine (Escherichia coli, UniProt P0A6A8)","holo-AcpP formation, HPLC",,"10 µM, added: malonyl-CoA",,condensation rate,1.37 min⁻¹
"H3K4me3 peptide, K4me3","Rag2 (Mus musculus, UniProt P21784)","12-RSS nicking, steady-state kinetics",,added: H3K4me3 4 µM,,kcat,0.0627 s⁻¹
B2 (FGF6),"FGFR3 isoform IIIc (unknown, UniProt Q61851)","cell proliferation, MTT",BaF3-FGFR3c,"20 nM, 48 h, added: chondroitin sulfate A 4.9 µg/mL","reference: FGF 1 with heparin, higher = more proliferation",cell proliferation,4%
B3 (DLAT 214-416),"T1, PDHA1/PDHB 30-390 E229A on β (Homo sapiens)",SPR,,,,binding,binds
YASKGKKRNPGLKIPK (MAP2K6 residues 4-17 (Homo sapiens)),"Mapk14 D315S/D316E/E317A, pT180, pY182 (Rattus norvegicus, UniProt P70618)","kinase activity, inhibitor, competitive kinase inhibition assay",peptide,added: ATP 1 mM,,IC50,16 µM
"TFPI endogenous, on cells (Homo sapiens, UniProt P10646)",F10 factor Xa,factor Xa inhibition,HUVEC,"100 µg/mL total protein, final, α-cyclodextrin",,free factor Xa,0.04 nM
B4 (TUB1/TUB2 heterodimer D118A),"Kip3 (Saccharomyces cerevisiae, UniProt P53086)",TIRF competition,,,"reference: control tubulin, higher = lower affinity",relative affinity,10 fold
"FXR1 (Homo sapiens, UniProt P51114)",GFP-GAPDH/TDRD3 fusion (Homo sapiens),"FXR1 enrichment, co-IP",,,"reference: single domain, higher = stronger binding",affinity increase,20 fold
"DNAJC7 (Homo sapiens, UniProt Q99615)","T2, HSP90AA1 723-732 C-terminal peptide M to I, N-terminal 5-carboxyfluorescein (Homo sapiens)",fluorescence polarisation,,"DnaJC7, mutant tracer, added: 5-Fam peptide tracer 20 nM","reference: wt Hsp90α tracer, higher = stronger binding",affinity change,> 2 fold
"MENVKKATRTTTWMVPTAQ (L3MBTL3 52-70 A60R (Homo sapiens, UniProt Q96JM7-2); sequence looked up)","Rbpj 53-474 (Mus musculus, UniProt P31266)",ITC,peptide,"pH 6.5, 25 °C, NaCl 150 mM",,ΔH,-15.7 kcal/mol

# Excerpt of the above:
Molecule,tested on,assay,system,setting,how to read,endpoint,result
B1 (UGT1A9),O=c1ccoc2cc(O)ccc12,steady-state kinetics,,"pH 7.4, 37 °C",,Vmax/Km,8 µL/min/mg
